Assay results pooled from the literature.
Numbered parts are unrelated; each lists some results of a single study. Substitutions count along the parent as printed.

Set 1 — target: BATF, bZIP domain (human); method: DHFR protein complementation; sample: yeast; reference: wild-type JUN-FOS pair; reading: higher = stronger binding
Notes: single substitutions, most at no-binding floor
Starting sequence: JUN, bZIP domain (human); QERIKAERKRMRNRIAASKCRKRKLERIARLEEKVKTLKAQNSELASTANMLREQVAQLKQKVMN; partner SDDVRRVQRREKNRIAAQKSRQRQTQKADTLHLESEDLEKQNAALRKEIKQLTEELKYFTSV
| Substitution | binding fitness |
| --- | --- |
| A57V | -0.107 natural log |
| E44F | -0.146 natural log |
| L45A | -0.939 natural log |
| K34V | -0.0959 natural log |
| T37V | 0.00864 natural log |
| V56Y | -0.675 natural log |
| L31E | 0.0671 natural log |
| V56L | -0.0482 natural log |
| S43R | 0.101 natural log |
| A49Y | -0.234 natural log |
| L31V | -0.152 natural log |
| E54M | -0.0646 natural log |
| T48A | -0.0621 natural log |
| E33I | -0.212 natural log |
| T48Q | 0.0419 natural log |
| Q41A | -0.0776 natural log |
| Q55H | -0.0239 natural log |
| E33S | -0.126 natural log |
| L59V | 0.0703 natural log |
| A29W | -0.216 natural log |
| S47M | -0.0227 natural log |
| L38F | -0.562 natural log |
| A29K | -0.143 natural log |
| S47G | 0.013 natural log |
| A46T | 0.0983 natural log |

Set 2 — method: protein-binding microarray; form: double-stranded DNA, one strand shown; sample: in vitro; tested at: not given; reading: higher = stronger binding
Target: Protein max, full length (MAX, Homo sapiens, UniProt P61244-2, residues 1-151)
Notes: k-mer, scored over probes, only values ≥0.25
| Sequence | E-score |
| --- | --- |
| ACAGGTGC | 0.309 |
| GCATACAC | 0.264 |
| ACAAGCAT | 0.274 |
| ACATGGCG | 0.418 |
| AAGCATGC | 0.456 |
| CGGTGCGC | 0.252 |
| CCTACACG | 0.321 |
| CGACCACG | 0.392 |
| CATGCCCA | 0.345 |
| AATAACAC | 0.28 |
| AATGTGAT | 0.278 |
| GGCGTGAC | 0.358 |
| AGCGTGGC | 0.437 |
| ACACGGGT | 0.299 |
| AACGTGGT | 0.434 |
| ATGTGGAC | 0.312 |
| CATGACCC | 0.29 |
| ACGAGGAT | 0.26 |

Set 3 — target: CCNB3, cyclin fold, Cln2 fusion (human); method: yeast growth competition, sequencing; sample: yeast; notes: weak parent motif; reference: not given; reading: higher = stronger binding
Starting sequence: PKN2 docking peptide (human); VSAVQKLDFSDTM; partner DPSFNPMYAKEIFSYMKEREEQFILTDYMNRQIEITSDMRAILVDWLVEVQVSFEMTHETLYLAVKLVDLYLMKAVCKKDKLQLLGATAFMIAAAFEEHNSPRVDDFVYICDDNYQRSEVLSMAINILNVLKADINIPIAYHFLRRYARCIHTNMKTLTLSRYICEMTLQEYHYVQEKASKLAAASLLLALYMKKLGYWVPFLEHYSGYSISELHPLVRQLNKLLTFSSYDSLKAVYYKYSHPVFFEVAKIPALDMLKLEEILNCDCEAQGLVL
| Substitution | normalised enrichment score |
| --- | --- |
| F9I | 0.19 |
| A3E | 0.32 |
| S10G | 0.37 |
| D11R | 0.27 |
| K6N | 0.611 |
| D11H | 0.302 |
| T12R | 0.181 |
| S10V | 0.521 |
| F9G | 0.0751 |
| D11V | 0.277 |
| D11L | 0.696 |
| V1K | 0.308 |
| S2P | 0.13 |
| M13N | 0.343 |
| D11Q | 0.0735 |
| T12F | 0.374 |

Set 4 — target: CRIPT, C-terminal peptide; method: DHFR complementation, deep sequencing; sample: yeast; reference: wild type; reading: higher = weaker binding
Notes: single substitutions, model-inferred values
Starting sequence: ERBIN, PDZ domain 1 (human); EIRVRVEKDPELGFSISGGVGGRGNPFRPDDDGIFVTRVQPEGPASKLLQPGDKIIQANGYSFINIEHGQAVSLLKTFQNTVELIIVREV; partner TKNYKQTSV
| Substitution | binding free energy change [kcal/mol] |
| --- | --- |
| F78L | 0.115 |
| L75K | 1.52 |
| I85A | -0.000269 |
| I66C | 0.171 |
| I86M | 0.0556 |
| I85M | -0.0194 |
| Q79T | -0.00141 |
| F78G | 0.155 |
| E67R | 0.0115 |
| F78R | 0.462 |
| E1G | 0.128 |
| V20P | 1.45 |
| R3P | 0.0673 |
| G52Y | 1.02 |
| Q79V | 0.0257 |
| A45S | -0.634 |
| G13A | 1.17 |
| N65D | -0.0456 |

Set 5 — method: DHFR PCA, deep sequencing; sample: yeast; together with: (+)-ABA 1.4 µM; reference: wild-type fitted maximum; reading: higher = stronger binding
Target: ABI1, truncated, D143A, DHFR fusion (Arabidopsis thaliana)
Notes: methotrexate growth selection, single substitutions
Starting sequence: PYL1, truncated, DHFR fusion (Arabidopsis thaliana); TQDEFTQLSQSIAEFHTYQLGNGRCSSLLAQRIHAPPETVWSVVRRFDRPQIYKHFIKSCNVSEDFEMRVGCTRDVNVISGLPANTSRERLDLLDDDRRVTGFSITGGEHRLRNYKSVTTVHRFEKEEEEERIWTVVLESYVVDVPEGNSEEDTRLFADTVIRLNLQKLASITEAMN; partner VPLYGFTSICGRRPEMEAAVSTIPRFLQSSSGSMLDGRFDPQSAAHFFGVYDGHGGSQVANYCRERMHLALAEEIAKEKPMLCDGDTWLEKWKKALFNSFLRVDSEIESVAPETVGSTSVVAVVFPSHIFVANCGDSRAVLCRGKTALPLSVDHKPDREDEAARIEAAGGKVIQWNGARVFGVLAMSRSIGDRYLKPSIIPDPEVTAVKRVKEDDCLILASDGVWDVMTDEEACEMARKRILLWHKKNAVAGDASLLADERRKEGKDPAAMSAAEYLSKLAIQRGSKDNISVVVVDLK
| Substitution | relative binding score |
| --- | --- |
| R113C | 34.8% |
| N114Y | -3.32% |
| Y115Q | -7.34% |
| A170Y | -25.1% |
| V76M | 6.6% |
| R88H | 72% |
| I105E | -10.8% |
| F124P | 3.39% |
| Q7I | 41.4% |
| D96W | -2.05% |
| R49I | 7.09% |
| N61W | 39.6% |
| E129G | 79.5% |
| V142G | -9.18% |
| E38V | 13.4% |
| K54I | -4.29% |
| Q31N | -10.9% |
| E130I | 49.7% |

Set 6 — method: RNA Bind-n-Seq; form: RNA; sample: in vitro; tested at: 365 nM; reference: no-protein control; reading: higher = stronger binding
Target: RNA binding protein fox-1 homolog 2, RRM domain, GST-SBP tag (RBFOX2, Homo sapiens, UniProt O43251-10, residues 100-194)
Notes: natural RNA segment, single round, ends assumed
Shared flanks, not repeated: GGGAGUUCUACAGUCCGACGAUC … UGGAAUUCUCGGGUGCCAA
Residues (chain): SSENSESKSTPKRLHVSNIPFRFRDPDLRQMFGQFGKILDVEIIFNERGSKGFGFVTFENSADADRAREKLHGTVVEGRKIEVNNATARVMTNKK
| Sequence | RBNS enrichment (R) |
| --- | --- |
| CCAGAAGACCCAACUGGUGCCAAGGAAUCCCAGCAUGGACAGGCAGGGACCUGUUUCCCAAGAAGAGAGCCUGAUAUUCAAAGGGUGGGACAGCAUCUGCCCGACUUCCC | 3.21 |
| GAGGGAACCUCUAAAUAAUUUCAGGGGUAGGGGAGAUGUUGUCAAUAGGAAAUGGGAUAAAAUAUCAAGAGACAAUGAAAACACUGCCUUGACAUGAGGACCAGCAAGUU | 1.1 |
| UCAAGACUUUGUGUCUAAUGUUUUUCAAACUUCCCAUUAGAUCACUGCUUCAAUACAAAACCAGCAGAAAUAUAAAAAAAAAAAAAUACUUCAGUUAUUGGUGUCCAUGA | 0.898 |
| CCUACCCGAUUGGUCCCGGCCUCCUGGGAGUGUGGCCAAGCCCUCCCUAACCCAGAAUUGGCCCGAGGCCUUUAAUUUCUUACACUACUAGGGCUGUUAAUCAAUUGUUU | 0.412 |
| GACUGUGUUGAUUACCUUCACUAUUCGGCCAGCCUGACCUUUUAAUAACUUUGUAAAAAGCAUGUAUGUAUUUAUAGUGUUUUAGAUUUUUCUAACUUUUAUAUCUUAAA | 1.39 |
| GCUUGAUGUGAAGUCCUCUAGAAUGUUUACAUUUACUAAGGUGUGCUGGGUCCUGUCUCUUUUGACUAAUAUUUUCGUAAACAUUAGGCUGGAGAAAGGAAGGAAGCAGU | 0.432 |
| GGGGCCAUCAAACUGUCUACCUGAUGCUGUGGUUUCUGCUUAGAGAUCUGGAGGAGGGCAGCGGAGCCUGCCUCGGUUCAGUGAUGGUUUUUCUUACCUGCUUCAAGCCG | 0.245 |
| AUUUCCUUAUUAUCAGAUGUAUUUUUUCUUUUAAGUUUCAAUGUUGUUAUAAUUCUCAACCAGAAAUUUAAUACUUUCUAAAAUAUUUUUUAAAUUUAGCUUGUGCUUUU | 2.19 |
| GCCCAACCUGGGCAAGCAUGAGAAGUUCUCGGAGGUGCUUAAGCGGCUGCGACUUCAGAAGCGAGGCACAGGCGGUGUGGACACGGCUGCGGUGGGCGGGGUCUUCGACG | 9.79 |
| ACCACAGAGUGCACUCGAGGGGACUUUCAGUCACAGGAUUUCAUAAUUGUCAUUGUCACACUUUCAAAUUUUUGUACAUCAGUGAAUUUUUUUAUAUUAAAAGGUUGAGC | 0.481 |
| UUUAUUGGUUUCCAAAGAAACAAACCAAACCAACCAGCUCUUGGAUGUGAAGAUAAAAUAGUGCUUUUUUGAAAUGGAGAGGAAAAACUUGGGGAGGAAGAGGCCUGCUG | 0.746 |
| CUCUGAGGCAUUGUGGUGGUCCCUUGUCUGAUAAAUAAAUAAUGAAUAAAUAAAAGUUAUAUCAGACAGUACUGACAGACAAUAAAGAAACCCCCCCCCCAGGGUGCCCA | 0.54 |

Set 7 — method: RNAcompete; form: RNA; sample: in vitro; tested at: 20 nM; notes: 7-mer, probes averaged, single round; reference: mean of 7-mers; reading: higher = stronger binding
Target: PABPC1L2, full length, GST fusion (mouse, UniProt A0ABA7IW68)
Target sequence (chain): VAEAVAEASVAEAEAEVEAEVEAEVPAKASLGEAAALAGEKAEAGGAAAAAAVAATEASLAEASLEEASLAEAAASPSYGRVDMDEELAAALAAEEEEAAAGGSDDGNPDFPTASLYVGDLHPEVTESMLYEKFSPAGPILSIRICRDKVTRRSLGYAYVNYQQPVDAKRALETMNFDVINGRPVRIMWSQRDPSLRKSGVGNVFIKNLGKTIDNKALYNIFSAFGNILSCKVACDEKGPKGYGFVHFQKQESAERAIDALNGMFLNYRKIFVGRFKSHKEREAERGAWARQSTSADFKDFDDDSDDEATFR
| Sequence | 7-mer Z-score |
| --- | --- |
| UGGUCAU | 0.0279 |
| UGUGGCC | -0.289 |
| AAUCGUU | -0.224 |
| GAAUGAG | -0.128 |
| UGUAAAA | 2.62 |
| UAGACAU | -0.0301 |
| CUGUGCG | -0.298 |
| CGGAAAC | -0.00289 |
| GACAGAC | -0.00289 |
| CUCUUGC | -0.489 |
| CUCUGAA | -0.0301 |
| CUGUCUU | -0.418 |
| UUCCAGG | -0.202 |
| UCCAAAA | 3.99 |
| AUGUCUU | -0.188 |
| ACGCCGA | -0.208 |
| CAAAUUA | 0.519 |
| CAUACGA | -0.0101 |
| CUCCUGG | -0.237 |
| CAUUGAA | 0.0823 |
| GACGUGU | -0.273 |
| GCACGCA | -0.05 |
| CUCUUGU | -0.499 |

Mixed results
| Molecule | target | test | system | conditions | scale | measurement | value |
| --- | --- | --- | --- | --- | --- | --- | --- |
| PhoQ, residues 284 288 289 292 302 303 NLGVHL | PhoP, residues 12 14 15 18 19 NQAHL (Escherichia coli, UniProt P23836) | Sort-seq, item: YFP reporter | E. coli | PhoQ-PhoP variant library, together with: 10 µM Mg2+ | reference: high Mg2+ state, higher = stronger signaling | fold induction | 18 |
